Results from different studies.
Every numbered part comes from another study and shows a few of its results, in no order.
Sequence of UniProt Q8NE63 (whole entry, looked up): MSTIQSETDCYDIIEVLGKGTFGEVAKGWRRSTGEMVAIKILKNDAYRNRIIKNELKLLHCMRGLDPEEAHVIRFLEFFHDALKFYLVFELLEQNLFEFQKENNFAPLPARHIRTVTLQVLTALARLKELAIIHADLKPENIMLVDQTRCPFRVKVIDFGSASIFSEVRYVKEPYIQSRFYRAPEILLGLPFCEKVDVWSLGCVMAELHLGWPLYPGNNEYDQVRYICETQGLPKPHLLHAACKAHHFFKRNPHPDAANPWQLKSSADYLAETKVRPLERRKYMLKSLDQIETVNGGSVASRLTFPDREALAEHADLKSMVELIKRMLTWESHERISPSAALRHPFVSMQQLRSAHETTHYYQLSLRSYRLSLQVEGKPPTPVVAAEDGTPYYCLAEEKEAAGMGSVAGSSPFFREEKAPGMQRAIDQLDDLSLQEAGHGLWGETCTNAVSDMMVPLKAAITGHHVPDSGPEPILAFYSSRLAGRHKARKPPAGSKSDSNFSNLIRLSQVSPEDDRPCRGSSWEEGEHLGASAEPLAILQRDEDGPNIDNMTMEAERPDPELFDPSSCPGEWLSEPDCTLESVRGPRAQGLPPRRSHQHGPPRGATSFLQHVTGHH
Sequence of UniProt Q8TBX8 (whole entry, looked up): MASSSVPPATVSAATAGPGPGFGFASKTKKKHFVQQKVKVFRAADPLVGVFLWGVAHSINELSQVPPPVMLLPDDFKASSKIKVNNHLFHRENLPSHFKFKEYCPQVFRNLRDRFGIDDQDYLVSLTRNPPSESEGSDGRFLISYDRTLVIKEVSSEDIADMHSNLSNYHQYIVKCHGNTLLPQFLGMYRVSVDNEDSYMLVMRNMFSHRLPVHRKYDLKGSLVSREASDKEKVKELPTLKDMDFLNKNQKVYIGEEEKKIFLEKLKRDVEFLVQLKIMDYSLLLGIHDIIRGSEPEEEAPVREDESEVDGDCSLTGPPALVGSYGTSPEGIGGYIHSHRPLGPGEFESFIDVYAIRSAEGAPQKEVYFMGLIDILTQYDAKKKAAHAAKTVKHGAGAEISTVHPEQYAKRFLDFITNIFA
Sequence of UniProt P29597 (whole entry, looked up): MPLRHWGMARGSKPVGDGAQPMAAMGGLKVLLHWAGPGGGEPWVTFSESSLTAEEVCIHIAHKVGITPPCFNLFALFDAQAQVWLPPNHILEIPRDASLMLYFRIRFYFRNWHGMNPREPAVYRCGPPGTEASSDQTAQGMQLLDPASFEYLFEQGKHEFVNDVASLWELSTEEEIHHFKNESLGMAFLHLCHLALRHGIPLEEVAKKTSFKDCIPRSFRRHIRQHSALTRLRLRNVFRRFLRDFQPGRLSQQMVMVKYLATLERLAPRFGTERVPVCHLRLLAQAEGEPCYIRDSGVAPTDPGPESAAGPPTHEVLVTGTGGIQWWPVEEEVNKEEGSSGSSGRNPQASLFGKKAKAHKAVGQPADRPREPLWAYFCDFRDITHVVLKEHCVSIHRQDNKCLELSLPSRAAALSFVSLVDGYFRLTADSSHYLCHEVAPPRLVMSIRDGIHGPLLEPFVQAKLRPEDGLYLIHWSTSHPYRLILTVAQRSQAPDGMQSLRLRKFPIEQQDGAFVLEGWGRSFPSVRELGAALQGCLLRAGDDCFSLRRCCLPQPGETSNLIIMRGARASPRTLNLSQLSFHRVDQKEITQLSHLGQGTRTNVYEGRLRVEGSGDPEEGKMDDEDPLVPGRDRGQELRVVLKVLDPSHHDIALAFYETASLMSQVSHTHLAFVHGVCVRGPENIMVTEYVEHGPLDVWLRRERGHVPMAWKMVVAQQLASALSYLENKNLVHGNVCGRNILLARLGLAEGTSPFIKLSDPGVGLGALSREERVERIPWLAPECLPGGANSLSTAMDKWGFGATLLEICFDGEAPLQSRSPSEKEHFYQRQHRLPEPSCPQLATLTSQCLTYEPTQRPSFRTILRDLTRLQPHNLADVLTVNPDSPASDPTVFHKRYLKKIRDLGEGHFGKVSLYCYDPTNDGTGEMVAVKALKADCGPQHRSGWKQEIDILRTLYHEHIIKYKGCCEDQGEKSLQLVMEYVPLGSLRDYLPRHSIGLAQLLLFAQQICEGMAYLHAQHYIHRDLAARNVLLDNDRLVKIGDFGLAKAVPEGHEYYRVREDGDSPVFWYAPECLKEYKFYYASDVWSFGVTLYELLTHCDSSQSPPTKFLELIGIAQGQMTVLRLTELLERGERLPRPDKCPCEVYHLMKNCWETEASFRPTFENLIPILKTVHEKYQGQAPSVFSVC
Sequence of UniProt Q9NSY1 (whole entry, looked up): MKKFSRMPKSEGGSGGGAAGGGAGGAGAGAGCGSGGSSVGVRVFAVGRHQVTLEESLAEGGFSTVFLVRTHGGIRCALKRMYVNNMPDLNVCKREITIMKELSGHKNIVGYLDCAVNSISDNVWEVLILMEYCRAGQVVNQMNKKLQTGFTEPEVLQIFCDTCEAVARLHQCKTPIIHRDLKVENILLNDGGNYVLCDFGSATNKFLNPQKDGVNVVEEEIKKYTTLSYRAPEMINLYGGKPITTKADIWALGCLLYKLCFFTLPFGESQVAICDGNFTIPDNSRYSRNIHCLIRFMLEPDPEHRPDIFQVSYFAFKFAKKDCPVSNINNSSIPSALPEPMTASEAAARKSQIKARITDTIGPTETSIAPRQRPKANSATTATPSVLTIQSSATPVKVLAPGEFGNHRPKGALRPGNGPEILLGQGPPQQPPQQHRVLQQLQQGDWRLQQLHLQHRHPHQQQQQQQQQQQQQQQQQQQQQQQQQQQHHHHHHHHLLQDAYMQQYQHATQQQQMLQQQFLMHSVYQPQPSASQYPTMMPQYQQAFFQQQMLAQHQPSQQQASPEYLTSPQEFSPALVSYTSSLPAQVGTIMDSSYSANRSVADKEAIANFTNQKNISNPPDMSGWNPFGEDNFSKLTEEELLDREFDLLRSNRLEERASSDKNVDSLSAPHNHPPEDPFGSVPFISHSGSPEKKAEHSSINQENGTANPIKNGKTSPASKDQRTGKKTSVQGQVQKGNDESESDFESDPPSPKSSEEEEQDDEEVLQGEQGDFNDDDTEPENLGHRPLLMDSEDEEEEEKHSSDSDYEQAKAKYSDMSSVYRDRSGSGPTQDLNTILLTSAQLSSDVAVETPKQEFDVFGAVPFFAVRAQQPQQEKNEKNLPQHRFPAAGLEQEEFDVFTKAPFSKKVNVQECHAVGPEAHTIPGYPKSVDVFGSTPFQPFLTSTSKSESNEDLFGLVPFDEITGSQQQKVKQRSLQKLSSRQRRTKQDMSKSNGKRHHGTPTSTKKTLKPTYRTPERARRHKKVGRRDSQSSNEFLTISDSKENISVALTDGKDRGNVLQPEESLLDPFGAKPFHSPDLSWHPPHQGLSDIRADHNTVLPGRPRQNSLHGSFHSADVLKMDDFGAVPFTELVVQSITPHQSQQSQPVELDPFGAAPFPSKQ

Study 1 — cell line: A-375; tested at: 100 µM; time: 36 h
| Structure (SMILES) | viability [%] |
| --- | --- |
| CC1COc2c(N3CCN(C)CC3)c(F)cc3c(=O)c(C(=O)O)cn1c23 (stereo not drawn) | 107 |
| CCN1CCC[C@H]1CNC(=O)c1cc(S(N)(=O)=O)ccc1OC | 104 |
| OCc1ccccc1 | 105 |
| COc1cc(NC(C)CCCN)c2ncccc2c1 (stereo not drawn) | 0.262 |
| CN[C@@H]1[C@@H](O)[C@@H](O[C@@H]2[C@@H](O)[C@H](O[C@H]3OC(CN)=CC[C@H]3N)[C@@H](N)C[C@H]2N)OC[C@]1(C)O | 110 |

Study 2 — observed: cell-free assay; technique: competition with immobilised ligand; tested at: 1 µM
SMILES: CCCCN(CCCC)C(=O)CN1C[C@H](c2cc(OC)c3c(c2)OCO3)[C@@H](C(=O)O)[C@@H]1CC(C)(C)CCC
| target | remaining binding [%] |
| --- | --- |
| Non-receptor tyrosine-protein kinase TYK2, JH2 (TYK2, Homo sapiens, UniProt P29597) | 85.9 |
| Homeodomain-interacting protein kinase 4 (HIPK4, Homo sapiens, UniProt Q8NE63) | 100 |
| Phosphatidylinositol 5-phosphate 4-kinase type-2 gamma (PIP4K2C, Homo sapiens, UniProt Q8TBX8) | 100 |
| BMP-2-inducible protein kinase (BMP2K, Homo sapiens, UniProt Q9NSY1) | 100 |

Study 3 — observed: enzyme activity; mode: inhibitor; tested at: 0.5 µM; baseline: control
Target: Serine/threonine-protein kinase PAK 4 (PAK4, Homo sapiens, UniProt O96013)
Sequence of UniProt O96013 (whole entry, looked up): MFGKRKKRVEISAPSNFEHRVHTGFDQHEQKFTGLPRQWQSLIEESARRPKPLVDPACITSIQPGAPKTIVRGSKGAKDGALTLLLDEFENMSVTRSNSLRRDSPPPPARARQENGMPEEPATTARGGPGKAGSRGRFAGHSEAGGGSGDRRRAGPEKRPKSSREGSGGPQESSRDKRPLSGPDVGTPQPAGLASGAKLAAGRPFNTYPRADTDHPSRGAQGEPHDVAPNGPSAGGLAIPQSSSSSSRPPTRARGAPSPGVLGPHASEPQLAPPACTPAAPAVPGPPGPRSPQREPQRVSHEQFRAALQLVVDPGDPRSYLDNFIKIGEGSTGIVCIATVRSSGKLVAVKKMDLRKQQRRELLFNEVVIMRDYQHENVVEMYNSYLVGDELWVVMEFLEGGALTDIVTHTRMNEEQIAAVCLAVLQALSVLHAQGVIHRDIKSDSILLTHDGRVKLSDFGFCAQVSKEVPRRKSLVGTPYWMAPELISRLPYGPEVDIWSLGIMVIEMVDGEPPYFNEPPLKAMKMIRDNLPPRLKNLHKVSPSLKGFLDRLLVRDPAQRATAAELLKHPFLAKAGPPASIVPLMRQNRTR
| SMILES | remaining activity [%] |
| --- | --- |
| NCCNc1ncc(C(N)=O)c(Nc2cccc(C(F)(F)F)c2)n1 | 69.3 |
| Cc1ccc(Nc2nccc(N(C)c3ccc4c(C)n(C)nc4c3)n2)cc1S(N)(=O)=O | 92 |
| O=C(CCCc1ccc(-c2ccccc2F)cc1)Nc1ccc(O)cc1 | 95.4 |
| CC(C)[C@H](CO)Nc1nc(Nc2cc(N)cc(Cl)c2)c2ncn(C(C)C)c2n1 | 102 |
| Cc1nc(-c2ccccc2)c(-c2ccncc2)o1 | 101 |
| Nc1ncnc2n[nH]c(Nc3ccc(F)cc3)c12 | 104 |
| Nc1ccc2ncnc(NCCc3ccc(Oc4ccccc4)cc3)c2c1 | 105 |
| C#Cc1cccc(Nc2ncnc3cc(OCCOC)c(OCCOC)cc23)c1 | 91.8 |
| CNC(=O)c1cc(Oc2ccc(NC(=O)Nc3ccc(Cl)c(C(F)(F)F)c3)cc2)ccn1 | 91.8 |
| Cn1sc(=O)n(Cc2ccccc2)c1=O | 104 |
| O=c1c2ccccc2[nH]c(=S)n1CCN1CCC(=C(c2ccc(F)cc2)c2ccc(F)cc2)CC1 | 101 |
| O=C1NC(=O)C(c2cn(CCCn3ccnc3)c3ccccc23)=C1Nc1ccccc1 | 97.8 |
| O=C1NC(=O)C(c2cn(CCCO)c3ncccc23)=C1c1cnccn1 | 111 |

Study 4 — cell line: mouse MPNST tumor cells; technique: high-content immunofluorescence imaging; measured: nuclear SOX9; tested at: 10 µM; time: 12 h; notes: mean of 2 replicates; baseline: DMSO control; direction: higher = more nuclear SOX9
| SMILES | nuclear SOX9 intensity |
| --- | --- |
| CO/N=C(\C(=O)N[C@@H]1C(=O)N2C(C(=O)O)=C(COC(N)=O)CS[C@H]12)c1ccco1 | 84 % of DMSO |
| O=C(NC/C=C/CN1CCN(c2cccc(Cl)c2Cl)CC1)c1ccc(-c2ccccn2)cc1 | 186 % of DMSO |
| CC(=O)N[C@@H](CS)C(=O)O | 97.9 % of DMSO |
| CCOC(=O)c1ccc(CN(Cc2ccc(-c3cccc(S(C)(=O)=O)c3)cc2)S(=O)(=O)c2c(C)cc(C)cc2C)o1 | 120 % of DMSO |
| O=C(O)CC1CC(c2ccccc2)=NO1 (stereo not drawn) | 96.9 % of DMSO |
